Results collected from several papers.
Numbered parts are unrelated; each lists some results of a single study.

Set 1
Target: Centromere-binding protein 1, full length, His-tagged (CBF1, Saccharomyces cerevisiae, UniProt P17106, residues 1-351)
Sequence of UniProt P17106 (whole entry, looked up): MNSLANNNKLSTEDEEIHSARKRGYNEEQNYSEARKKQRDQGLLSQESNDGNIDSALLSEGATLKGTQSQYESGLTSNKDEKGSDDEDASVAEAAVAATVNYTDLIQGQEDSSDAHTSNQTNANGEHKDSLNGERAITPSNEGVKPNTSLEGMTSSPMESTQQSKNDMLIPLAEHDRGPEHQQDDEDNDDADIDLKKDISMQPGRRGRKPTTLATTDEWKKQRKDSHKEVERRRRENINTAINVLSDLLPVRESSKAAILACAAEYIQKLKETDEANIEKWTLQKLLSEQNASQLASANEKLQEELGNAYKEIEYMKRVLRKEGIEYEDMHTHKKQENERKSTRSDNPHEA
Technique: competition protein-binding microarray
Form: double-stranded DNA, one strand shown
Matrix: in vitro
Concentration: 2 µM
Setting: whole 60-bp probe, lowest competitor level
Added: Pho4 competitor, 0.05 µM
Reading: higher = stronger binding
Shared flanks, not repeated: … GTCTTGATTCGCTTGACGCTGCTG
Strand	fluorescence intensity
AACCTAGAGCTTCGTCACGGGGGCCTTGTCCGACTT	263 a.u.
GCTTTGGCATATTGCCACATGCGAATGTACATGTCC	91.2 a.u.
GTATTAGGTTGTCTGATCATGACGCTGTCCCCTACG	69.2 a.u.
CGTCCTAGCGATTGACCAGTGGGTGCCATGAGGAAG	68.9 a.u.
TATCAGGATCAACAGCACATGCAAACACCCCAATTC	111 a.u.
ACACAGCCGTACCTACACGTGCCAGTTATCTTGATA	1120 a.u.
CTGAACCGTCTTCGTCACGCTAGAGTTACTAGAAGA	96.2 a.u.
TATTGACAGCATTCGATCGTGCAATGGGAAATAACG	75.8 a.u.
CGGGGTTAAGTTTTTCACGTGGAGTGCTTGCAGCAG	374 a.u.
TGGAGAAATCTTGCATCCGTGCCGACCACGGCATTT	59.7 a.u.
GGTACAGACACAAAGCTCGTGCAAAGTGCTGTCCTA	89.1 a.u.
CGGGGTTAAGTTTGGAGAGTGGGTGGCTTGCAGCAG	70.1 a.u.
TACATCTACCGCTGAAACGTGGATTCAAGGAACAGT	73.3 a.u.
ACCACTCAGGTCCAGAACGTGACTCGTCTTTGCACC	644 a.u.
CTTCTGTAAATTTGAACTGTGGGTGGACGCGCCCCG	76.2 a.u.
CTTCTGTAAATTTGTAGTGTGGGTGGACGCGCCCCG	83.7 a.u.
CTAACGAAGGTTTGCGGTGTGGGTGACAAGCCAAGT	67.5 a.u.
TCGCCACCTCTGGTACCCGTGACGAAGCCAAGAAAT	208 a.u.
GACAATTTGGATTTACACATGGTTGAGATCCTGCAG	88.3 a.u.

Set 2
Target: Histone acetyltransferase KAT6A, winged helix 2, GST fusion (KAT6A, Homo sapiens, UniProt Q92794, residues 85-181)
Technique: protein binding microarray
Form: double-stranded DNA, one strand shown
Matrix: in vitro
Concentration: not given
Setting: 8-mer, flanks averaged, mean of 2 arrays, mostly near background
Reference: not given
Reading: higher = stronger binding
Residues (chain): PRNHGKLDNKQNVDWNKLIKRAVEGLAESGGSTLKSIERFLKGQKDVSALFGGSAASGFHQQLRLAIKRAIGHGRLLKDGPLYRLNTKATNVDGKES
Strand	E-score
ACGATAGC	-0.146
AAGACAGC	0.025
GAACCCGA	0.0859
CCTATTAC	-0.108
AACATACA	-0.0897
AAGTCTGC	-0.0893
AAGCGTGT	-0.0754
CTAAGAGC	-0.0253
CACGGATC	0.0644
AGTCATAG	-0.26
AAATCGTC	-0.0818
CATGAAGG	-0.0544
CCCCAACA	-0.0631
ATCCGGCC	0.156
GTTATGTA	-0.182
ATATAATA	0.128
CGTCTTAG	-0.143
GGACGCCA	0.00139
CTGGGGAC	-0.0737
CGAGTCAG	0.103
GCCAGGAC	0.142
GACGCGTA	-0.0382
CAAGTCCG	-0.0676

Set 3
Target: Interferon regulatory factor 3, full length, phosphomimetic (IRF3, Homo sapiens, UniProt Q14653, residues 1-427, S386D/S396D/S398D/S402D/T404D/S405D)
Technique: protein-binding microarray
Form: double-stranded DNA, one strand shown
Matrix: in vitro
Concentration: 2540 nM top
Setting: 60-bp whole probe
Added: salmon DNA 0.4 mg/ml
Reference: random background probes
Reading: higher = stronger binding
Shared flanks, not repeated: GCCTAGCAC … GTCTTGATTCGCTTGACGCTGCTG
Construct (chain): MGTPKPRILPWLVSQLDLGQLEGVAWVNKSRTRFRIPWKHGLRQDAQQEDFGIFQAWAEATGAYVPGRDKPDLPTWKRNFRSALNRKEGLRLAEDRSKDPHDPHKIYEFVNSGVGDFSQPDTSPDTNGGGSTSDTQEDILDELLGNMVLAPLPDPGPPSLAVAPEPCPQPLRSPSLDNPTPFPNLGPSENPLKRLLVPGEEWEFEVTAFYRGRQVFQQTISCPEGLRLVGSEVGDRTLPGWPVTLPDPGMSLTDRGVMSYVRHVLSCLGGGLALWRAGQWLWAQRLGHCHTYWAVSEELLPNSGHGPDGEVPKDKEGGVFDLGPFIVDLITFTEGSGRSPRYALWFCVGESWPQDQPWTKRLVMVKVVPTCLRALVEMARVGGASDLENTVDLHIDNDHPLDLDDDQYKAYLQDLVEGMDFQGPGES
Strand	fitted relative affinity [z-score]
GATGATATCAGTCTCGAGACGTGCTAG	0.946
TTAGGTTTCGGGTATCGGCTAGTGCTA	3.81
TTAGATTTCGGGCATCGATTAGTGCTA	0.196
TTAGTACTGCTTATCCTTTAGTGCTAG	0.213
GACGGTGTCGGTATCGGGACGTGCTAG	3.09
TTAGATATCCTTTTCCTTTAGTGCTAG	5.6
TTAGGATTCGGGTTTCGGTTAGTGCTA	3.75
TTAGGACTGATTTTCCTTTAGTGCTAG	1.62
GACGTTATCGGTATCGGGACGTGCTAG	2.43
TTAGAACGGGGGACTGGATTAGTGCTA	-0.25
ATAGATCTCAGTTTCGATTAGTGCTAG	3.93
TTAGGACTGCTTTTCCTTCAGTGCTAG	0.393
GACGGTCTCGGTCTGGGGACGTGCTAG	0.381
GACGCTTTCGGTCTCGGGACGTGCTAG	4.85
GAGGATTTCAGTCTCGAGACGTGCTAG	1.32
TTAGATTTCGGGAGTGGATTAGTGCTA	0.524
TTAGGTATCGACACTGGGGTAGTGCTA	0.041
TTAGATCTCGGGTATCGATTAGTGCTA	0.152
GACGCTTTCGGGACTGGAGACGTGCTA	1.9

Set 4
Target: Hepatocyte nuclear factor 3-alpha (Foxa1, Mus musculus, UniProt P35582, residues 1-468, full length assumed)
Technique: EMSA with sequencing
Form: double-stranded DNA, one strand shown
Matrix: in vitro
Concentration: 10 and 20 nM
Setting: whole designed probe, mean of two concentrations, ends assumed
Reference: negative control set to 0
Reading: higher = stronger binding
Shared flanks, not repeated: GTGAGCGGTGCCCATTGATGGGGAAC … TTTCACTGGGATCGTGGGGAC
Construct (chain): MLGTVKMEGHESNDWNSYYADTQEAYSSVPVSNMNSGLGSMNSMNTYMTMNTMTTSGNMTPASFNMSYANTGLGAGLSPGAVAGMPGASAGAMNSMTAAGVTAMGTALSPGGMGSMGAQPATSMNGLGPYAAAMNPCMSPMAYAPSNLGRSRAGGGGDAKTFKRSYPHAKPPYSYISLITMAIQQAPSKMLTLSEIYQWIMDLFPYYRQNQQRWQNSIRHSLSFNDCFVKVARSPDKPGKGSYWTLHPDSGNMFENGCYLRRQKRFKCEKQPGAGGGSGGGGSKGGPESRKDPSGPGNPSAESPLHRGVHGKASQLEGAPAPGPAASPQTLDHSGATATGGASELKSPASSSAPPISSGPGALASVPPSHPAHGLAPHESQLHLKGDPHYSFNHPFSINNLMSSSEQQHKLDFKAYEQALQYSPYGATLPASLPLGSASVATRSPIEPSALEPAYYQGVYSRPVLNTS
Strand	normalised bound fraction
TATAGACTGCGGCAGCCCAGTTCAAAAGAAACAGGCTTTAAAGAAAAGCAAACTGGTGTCCAATGACATCAAATAGAACCAGGAGCTCCAAAGTACATAAGCTTCTTGTCTCTGTTCTTATTTATTTATTGCTGTTGCTCACGCCAGTCAGGGCAGCAGGGGGCTGGCAGGCTTACTCATGGGCCCAGATAAG	0.296 ratio
AGTGGCAGGTTCCCTGCTGGGATTTAGCTGGAGAACAAAGTAAGTTTGCATAATGAGTGTGAGAGCTGTAAAGAATAAACTGTGAAGTGCTGTGCAATTTTTAGCTCTCCTGTCTCTTCCAGCTCTGGCCTTCCCTTAACAGTGTGGCTGAAAGCCCTTTGTCTGAGGACAAGGACAGATAAGCTAGTTAGAG	0.0255 ratio
ATCTTCCCCCTCTTCCTTGCCCCACCAGCTCACCTACGGGGGTTATTTGCACAAAGGAAAATAAATAAAGCCGGCATTCGTTAACCCTCTTCACGCGCATACTGCTGTTTGCTCTGGATGAATCATGGTCCTTTGGCGACGCCAGGCTCCGGGAGAGCAAAGCACCGTGTCAGGGCCATGATCCGGGGTGGCC	0.383 ratio
ATCTTCCCCCTCTTCCTTGCCCCACCAGCTCACCTTCCCGGGTTATTTGCAAAGTAGAAGATAAATAAAGCCGGCATTCGTTAACCCTCTTCTGGCGCAAACTGCTGTTTGCTCTGGATGAATCATGGTCCTTTGGCGACGCCAGGCTCCGGGAGAGCAAAGCACCGTGTCAGGGCCATGATCCGGGGTGGCC	0.304 ratio
GTGCTTCTAACTAGGTTAGGATACCCTGTTCTCATATATGAACTCTGCAAGAATGAGTACAATTTTCAGGAATGAGAGGGCAGGAGGGGGGAGTTATTTACATTAGCATTTGCCAAGTTTTCACTGTTTATCTTACCGGAAAGTCAACAGTGTGACTATTAACCTCCTGCATAATTAAAATTTGGGCCTTGTT	0.447 ratio
